Published values of several laboratories.
Every numbered part comes from another study and shows a few of its results, in no order.
Chain of UniProt Q12852 (whole entry, looked up): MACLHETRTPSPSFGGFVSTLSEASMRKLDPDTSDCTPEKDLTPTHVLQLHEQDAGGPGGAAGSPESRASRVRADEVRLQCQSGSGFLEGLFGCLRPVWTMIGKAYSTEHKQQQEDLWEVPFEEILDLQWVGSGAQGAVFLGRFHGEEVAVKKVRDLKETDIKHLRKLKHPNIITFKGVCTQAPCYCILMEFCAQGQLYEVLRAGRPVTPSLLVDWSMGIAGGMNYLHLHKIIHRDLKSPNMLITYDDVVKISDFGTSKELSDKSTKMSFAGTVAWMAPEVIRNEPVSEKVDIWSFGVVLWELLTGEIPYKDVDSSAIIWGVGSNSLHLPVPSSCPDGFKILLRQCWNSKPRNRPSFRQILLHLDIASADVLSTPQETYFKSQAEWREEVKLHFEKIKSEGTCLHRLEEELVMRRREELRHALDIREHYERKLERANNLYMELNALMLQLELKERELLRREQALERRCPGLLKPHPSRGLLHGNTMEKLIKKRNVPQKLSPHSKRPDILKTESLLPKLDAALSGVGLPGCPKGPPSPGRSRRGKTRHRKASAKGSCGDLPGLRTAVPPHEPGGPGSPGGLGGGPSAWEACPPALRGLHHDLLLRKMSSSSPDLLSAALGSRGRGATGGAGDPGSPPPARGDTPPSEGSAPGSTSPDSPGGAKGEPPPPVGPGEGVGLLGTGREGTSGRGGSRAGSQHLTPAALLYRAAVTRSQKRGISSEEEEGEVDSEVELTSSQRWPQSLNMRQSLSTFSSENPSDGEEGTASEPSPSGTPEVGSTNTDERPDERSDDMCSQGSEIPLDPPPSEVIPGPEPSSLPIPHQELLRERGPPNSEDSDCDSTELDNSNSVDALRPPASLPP
Chain of UniProt Q9BRS2 (whole entry, looked up): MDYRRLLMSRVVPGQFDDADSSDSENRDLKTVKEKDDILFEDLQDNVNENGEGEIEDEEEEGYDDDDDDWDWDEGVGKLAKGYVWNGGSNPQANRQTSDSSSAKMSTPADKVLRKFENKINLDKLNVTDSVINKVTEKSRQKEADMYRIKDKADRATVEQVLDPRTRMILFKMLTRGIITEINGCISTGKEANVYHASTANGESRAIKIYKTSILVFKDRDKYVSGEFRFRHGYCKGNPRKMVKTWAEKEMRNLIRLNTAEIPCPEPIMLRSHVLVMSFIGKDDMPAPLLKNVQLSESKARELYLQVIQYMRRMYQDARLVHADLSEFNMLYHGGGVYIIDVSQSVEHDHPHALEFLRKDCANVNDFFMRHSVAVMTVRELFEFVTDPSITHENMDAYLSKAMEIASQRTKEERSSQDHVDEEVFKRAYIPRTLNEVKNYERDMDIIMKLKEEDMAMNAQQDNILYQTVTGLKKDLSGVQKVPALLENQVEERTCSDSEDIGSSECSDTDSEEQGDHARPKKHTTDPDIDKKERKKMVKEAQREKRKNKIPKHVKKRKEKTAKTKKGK
Chain of UniProt P10721 (whole entry, looked up): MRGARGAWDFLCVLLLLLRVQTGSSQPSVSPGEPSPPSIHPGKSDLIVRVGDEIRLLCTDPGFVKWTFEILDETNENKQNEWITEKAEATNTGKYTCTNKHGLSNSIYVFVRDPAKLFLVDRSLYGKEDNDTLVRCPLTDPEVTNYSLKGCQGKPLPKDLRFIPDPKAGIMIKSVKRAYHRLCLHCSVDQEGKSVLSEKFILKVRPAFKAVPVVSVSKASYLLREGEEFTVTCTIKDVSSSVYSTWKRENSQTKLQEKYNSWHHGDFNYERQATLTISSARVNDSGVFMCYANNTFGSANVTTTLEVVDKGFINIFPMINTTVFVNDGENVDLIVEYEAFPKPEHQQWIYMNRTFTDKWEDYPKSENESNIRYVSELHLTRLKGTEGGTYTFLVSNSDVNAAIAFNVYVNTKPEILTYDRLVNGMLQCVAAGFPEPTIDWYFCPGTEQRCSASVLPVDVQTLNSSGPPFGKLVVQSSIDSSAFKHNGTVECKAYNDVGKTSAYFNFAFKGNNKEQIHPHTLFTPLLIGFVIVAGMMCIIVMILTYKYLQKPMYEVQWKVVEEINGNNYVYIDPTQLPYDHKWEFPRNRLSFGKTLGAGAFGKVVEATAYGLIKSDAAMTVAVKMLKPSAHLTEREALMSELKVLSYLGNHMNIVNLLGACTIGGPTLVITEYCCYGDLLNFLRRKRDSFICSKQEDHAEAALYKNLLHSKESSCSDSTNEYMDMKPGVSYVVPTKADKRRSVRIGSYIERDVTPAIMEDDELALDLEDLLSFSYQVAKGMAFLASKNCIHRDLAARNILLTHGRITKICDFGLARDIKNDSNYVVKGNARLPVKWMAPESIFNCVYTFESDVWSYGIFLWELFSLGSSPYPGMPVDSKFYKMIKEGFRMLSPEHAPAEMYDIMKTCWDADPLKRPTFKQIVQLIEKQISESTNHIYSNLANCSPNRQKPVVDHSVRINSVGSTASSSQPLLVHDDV
Chain of UniProt O00444 (whole entry, looked up): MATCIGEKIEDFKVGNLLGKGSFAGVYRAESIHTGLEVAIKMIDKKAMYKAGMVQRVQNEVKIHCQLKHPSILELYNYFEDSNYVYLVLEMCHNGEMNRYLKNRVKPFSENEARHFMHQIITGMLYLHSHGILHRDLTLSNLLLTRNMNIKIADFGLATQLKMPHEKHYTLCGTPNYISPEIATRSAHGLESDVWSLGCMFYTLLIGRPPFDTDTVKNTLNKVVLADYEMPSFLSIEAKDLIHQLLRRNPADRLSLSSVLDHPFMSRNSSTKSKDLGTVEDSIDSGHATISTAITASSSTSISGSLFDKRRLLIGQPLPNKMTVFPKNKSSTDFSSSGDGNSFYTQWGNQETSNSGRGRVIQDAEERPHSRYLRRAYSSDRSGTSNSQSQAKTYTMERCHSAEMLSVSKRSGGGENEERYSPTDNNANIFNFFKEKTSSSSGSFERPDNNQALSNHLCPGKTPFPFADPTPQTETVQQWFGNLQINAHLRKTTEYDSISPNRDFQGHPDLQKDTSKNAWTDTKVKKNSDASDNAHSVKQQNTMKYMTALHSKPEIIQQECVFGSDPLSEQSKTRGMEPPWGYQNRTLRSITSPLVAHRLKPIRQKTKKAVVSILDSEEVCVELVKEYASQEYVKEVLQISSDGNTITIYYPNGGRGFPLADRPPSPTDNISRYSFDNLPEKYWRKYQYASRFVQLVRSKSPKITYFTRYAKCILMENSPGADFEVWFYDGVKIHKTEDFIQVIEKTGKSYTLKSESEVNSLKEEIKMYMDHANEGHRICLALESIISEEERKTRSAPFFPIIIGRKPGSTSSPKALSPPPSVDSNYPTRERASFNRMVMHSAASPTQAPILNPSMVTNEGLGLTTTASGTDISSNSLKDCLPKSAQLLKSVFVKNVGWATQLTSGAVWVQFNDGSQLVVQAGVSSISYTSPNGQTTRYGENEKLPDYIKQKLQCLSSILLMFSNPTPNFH
Chain of UniProt O60331 (whole entry, looked up): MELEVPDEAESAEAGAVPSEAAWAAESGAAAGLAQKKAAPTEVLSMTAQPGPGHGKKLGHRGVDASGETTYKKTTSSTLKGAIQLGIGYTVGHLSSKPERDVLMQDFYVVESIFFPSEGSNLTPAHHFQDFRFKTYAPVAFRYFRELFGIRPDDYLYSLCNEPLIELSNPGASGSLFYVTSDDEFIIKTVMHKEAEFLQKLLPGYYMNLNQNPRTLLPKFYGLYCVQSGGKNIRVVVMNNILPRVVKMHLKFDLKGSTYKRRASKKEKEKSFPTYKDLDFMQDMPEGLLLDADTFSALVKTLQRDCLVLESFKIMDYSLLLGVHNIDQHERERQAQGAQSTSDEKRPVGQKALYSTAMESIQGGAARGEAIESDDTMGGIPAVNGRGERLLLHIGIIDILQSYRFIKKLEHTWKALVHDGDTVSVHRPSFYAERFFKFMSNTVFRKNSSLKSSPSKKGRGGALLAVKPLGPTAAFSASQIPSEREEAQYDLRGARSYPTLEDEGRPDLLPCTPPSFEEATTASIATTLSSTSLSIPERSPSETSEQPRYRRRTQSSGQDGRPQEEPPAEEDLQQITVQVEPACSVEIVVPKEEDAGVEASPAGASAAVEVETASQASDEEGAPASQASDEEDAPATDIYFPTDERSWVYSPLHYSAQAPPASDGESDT
Chain of UniProt Q9Y6M4 (whole entry, looked up): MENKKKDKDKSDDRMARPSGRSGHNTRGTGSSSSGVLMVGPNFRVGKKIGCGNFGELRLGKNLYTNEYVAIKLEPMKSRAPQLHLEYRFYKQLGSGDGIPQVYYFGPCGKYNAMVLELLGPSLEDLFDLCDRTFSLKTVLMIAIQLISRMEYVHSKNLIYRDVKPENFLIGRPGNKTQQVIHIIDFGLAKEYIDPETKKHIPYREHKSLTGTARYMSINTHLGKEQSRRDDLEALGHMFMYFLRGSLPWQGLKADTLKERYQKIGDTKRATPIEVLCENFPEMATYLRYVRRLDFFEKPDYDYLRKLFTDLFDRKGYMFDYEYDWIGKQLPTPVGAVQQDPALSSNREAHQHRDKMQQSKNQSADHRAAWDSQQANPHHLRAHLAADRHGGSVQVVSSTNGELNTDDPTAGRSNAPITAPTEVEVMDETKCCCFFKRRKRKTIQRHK

Series 1
Host: human
Matrix: microsomes or S9
Tested at: 2 µM
Time: 0.5 h
Quantity: remaining compound
Structure (SMILES) = O=C1CCC2(C(=O)N3CCN(c4ncccn4)CC3)CCCC=C2N1C1CCCC1 (centres unmarked); value = 5.86%
Structure (SMILES) = CN(C)S(=O)(=O)CCc1cn([C@@H]2CCc3c(F)cccc32)nn1; value = 90.3%
Structure (SMILES) = CCOC(=O)c1[nH]c(C)c(C(=O)Nc2n[nH]c3cc(Br)ccc23)c1C; value = 0.3%
Structure (SMILES) = CNC(=O)C1CCN(c2nc(Nc3ccc4[nH]ncc4c3)nc(OC)n2)CC1; value = 94%
Structure (SMILES) = COc1cc2c(Nc3cccc(Br)c3)ncnc2cc1OCC1CNCCO1 (centres unmarked); value = > 99.9%
Structure (SMILES) = COc1ccc(Cn2c(-c3c(C)n[nH]c3-c3ccccc3)nc3ccccc32)cc1; value = 14.1%
Structure (SMILES) = COc1cc(=O)[nH]cc1C(=O)N(C)C1(Cc2ccccc2)CCCC1; value = 12.2%
Structure (SMILES) = O=C1Cn2nnc(C(=O)c3ccccc3)c2C2(CCCCC2)O1; value = > 100%
Structure (SMILES) = CCn1c(=O)n(CC)c2cc(NS(C)(=O)=O)c(Br)cc21; value = 95%

Series 2
SMILES: Cc1nccc(COC(=O)N2C[C@@H]3[C@@H](CNC(=O)c4ccc5[nH]nnc5c4)[C@@H]3C2)n1
Technique: competition with immobilised ligand
Tested at: 1 µM
Quantity: remaining binding
target = MAP3K12 (Homo sapiens, UniProt Q12852); assay = cell-free assay; value = 72%
target = IKBKB (Homo sapiens, UniProt O14920); assay = cell-free assay; value = 96%
target = NUAK1 (Homo sapiens, UniProt O60285); assay = cell-free assay; value = 82%
target = BRSK2 (Homo sapiens, UniProt Q8IWQ3); assay = cell-free assay; value = 86%
target = CSNK1G3 (Homo sapiens, UniProt Q9Y6M4); assay = cell-free assay; value = 100%
target = Tyrosine-protein kinase ABL1, non-phosphorylated (ABL1, Homo sapiens, UniProt P00519, F317I); assay = binding; value = 100%
target = DYRK2 (Homo sapiens, UniProt Q92630); assay = cell-free assay; value = 94%
target = CHEK2 (Homo sapiens, UniProt O96017); assay = cell-free assay; value = 100%
target = ZAP70 (Homo sapiens, UniProt P43403); assay = cell-free assay; value = 97%
target = RIOK1 (Homo sapiens, UniProt Q9BRS2); assay = cell-free assay; value = 100%
target = TESK1 (Homo sapiens, UniProt Q15569); assay = cell-free assay; value = 98%
target = PIP5K1C (Homo sapiens, UniProt O60331); assay = cell-free assay; value = 93%
target = Mast/stem cell growth factor receptor Kit, autoinhibited (KIT, Homo sapiens, UniProt P10721); assay = cell-free assay; value = 79%
target = PIP4K2C (Homo sapiens, UniProt Q8TBX8); assay = cell-free assay; value = 100%
target = CAMK1D (Homo sapiens, UniProt Q8IU85); assay = cell-free assay; value = 100%
target = SLK (Homo sapiens, UniProt Q9H2G2); assay = cell-free assay; value = 100%
target = PLK4 (Homo sapiens, UniProt O00444); assay = cell-free assay; value = 83%

Series 3
Cell line: A-375
Tested at: 100 µM
Time: 36 h
Quantity: viability
Compound = C[C@H](O)C(=O)Nc1c(I)c(C(=O)NC(CO)CO)c(I)c(C(=O)NC(CO)CO)c1I; value = 124%
Compound = Nc1nc(NC2CC2)c2ncn([C@H]3C=C[C@@H](CO)C3)c2n1; value = 98.1%
Compound = CCCCNc1ccc(C(=O)OCCN(C)C)cc1; value = 94.3%
Compound = Cn1c(=O)c2c(ncn2CC2OCCO2)n(C)c1=O; value = 113%
Compound = CCCc1nc(C)c2c(=O)[nH]c(-c3cc(S(=O)(=O)N4CCN(CC)CC4)ccc3OCC)nn12; value = 11.6%
Compound = O=C(O)c1cc(/N=N/c2ccc(S(=O)(=O)Nc3ccccn3)cc2)ccc1O; value = 97.9%
Compound = CN(C)/N=N/c1[nH]cnc1C(N)=O; value = 81.4%
Compound = CCOC(=O)C1=C[C@@H](OC(CC)CC)[C@H](NC(C)=O)[C@@H](N)C1; value = 89.7%
Compound = CC[C@@H]([C@H](C)O)n1ncn(-c2ccc(N3CCN(c4ccc(OC[C@@H]5CO[C@@](Cn6cncn6)(c6ccc(F)cc6F)C5)cc4)CC3)cc2)c1=O; value = 61%
Compound = CN(C)CC(c1ccc(O)cc1)C1(O)CCCCC1 (centres unmarked); value = 98.7%

Series 4
Target: Calcium/calmodulin-dependent protein kinase type II subunit alpha (CAMK2A, Homo sapiens, UniProt Q9UQM7)
Chain of UniProt Q9UQM7 (whole entry, looked up): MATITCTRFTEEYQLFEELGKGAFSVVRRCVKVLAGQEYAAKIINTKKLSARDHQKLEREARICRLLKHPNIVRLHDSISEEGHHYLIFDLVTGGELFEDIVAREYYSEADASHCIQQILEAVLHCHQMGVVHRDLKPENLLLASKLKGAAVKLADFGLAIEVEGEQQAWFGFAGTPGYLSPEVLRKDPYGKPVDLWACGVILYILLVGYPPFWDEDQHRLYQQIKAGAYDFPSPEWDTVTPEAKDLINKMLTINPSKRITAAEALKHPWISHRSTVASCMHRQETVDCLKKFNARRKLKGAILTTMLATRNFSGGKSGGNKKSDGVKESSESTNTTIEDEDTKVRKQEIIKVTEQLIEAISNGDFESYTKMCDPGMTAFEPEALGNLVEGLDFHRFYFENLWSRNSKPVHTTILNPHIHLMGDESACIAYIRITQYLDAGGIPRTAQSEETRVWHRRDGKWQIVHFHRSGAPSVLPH
Read-out: enzyme activity
Action: inhibitor
Tested at: 10 µM
Quantity: inhibition
SMILES = CC(C)C[C@H](NC(=O)[C@@H](N)CC(C)C)C(=O)O; value = 4%
SMILES = COc1ccc(CNc2nc(N3CCC[C@H]3CO)ncc2C(=O)NCc2ncccn2)cc1Cl; value = 1%
SMILES = CCCCCC1=C(C)CCC1=O; value = -4%
SMILES = O=c1ccc2ccc(O)cc2o1; value = -33%
SMILES = CN1CCN2c3ccccc3Cc3ccccc3C2C1 (centres unmarked); value = 6%
SMILES = C[C@@H]1C(=O)O[C@H]2C[C@]34[C@@H]5OC(=O)[C@]3(O[C@@H]3OC(=O)[C@H](O)[C@@]34[C@H](C(C)(C)C)[C@H]5O)[C@]21O; value = -15%
SMILES = COc1ccc(-c2ccc3cc(C(=O)O)ccc3c2)cc1[C@]12C[C@H]3C[C@H](C[C@H](C3)C1)C2; value = -9%
SMILES = C=CCN1C[C@H](C(=O)N(CCCN(C)C)C(=O)NCC)C[C@@H]2c3cccc4[nH]cc(c34)C[C@H]21; value = 0%
